Measured values from different studies.
Several values in a cell are separate wells, animals, samples, runs or records. ± gives the spread as reported.
ALB: Albumin (ALB, Bos taurus, UniProt P02769)
Chain of UniProt Q96DE0 (whole entry, looked up): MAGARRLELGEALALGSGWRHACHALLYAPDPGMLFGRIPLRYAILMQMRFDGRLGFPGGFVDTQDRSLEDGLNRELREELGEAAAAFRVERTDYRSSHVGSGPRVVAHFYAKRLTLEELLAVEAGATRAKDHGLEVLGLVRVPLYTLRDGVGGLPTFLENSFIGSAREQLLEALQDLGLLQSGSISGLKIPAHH
Chain of UniProt P02769 (whole entry, looked up): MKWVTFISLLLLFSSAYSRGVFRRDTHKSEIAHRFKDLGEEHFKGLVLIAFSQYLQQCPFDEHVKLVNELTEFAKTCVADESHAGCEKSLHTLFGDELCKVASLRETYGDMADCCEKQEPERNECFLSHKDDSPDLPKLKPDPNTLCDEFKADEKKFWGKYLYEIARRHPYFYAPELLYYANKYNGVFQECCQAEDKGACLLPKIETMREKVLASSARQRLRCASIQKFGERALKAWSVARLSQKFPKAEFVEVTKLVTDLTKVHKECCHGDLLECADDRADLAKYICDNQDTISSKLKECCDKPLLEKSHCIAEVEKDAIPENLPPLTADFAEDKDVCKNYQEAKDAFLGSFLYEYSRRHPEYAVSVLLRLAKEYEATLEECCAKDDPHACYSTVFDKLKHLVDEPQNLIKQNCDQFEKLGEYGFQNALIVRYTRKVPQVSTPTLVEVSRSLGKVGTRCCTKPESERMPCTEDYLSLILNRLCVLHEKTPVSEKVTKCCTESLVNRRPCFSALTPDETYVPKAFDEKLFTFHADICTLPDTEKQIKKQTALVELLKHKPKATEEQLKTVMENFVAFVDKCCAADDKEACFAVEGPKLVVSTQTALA
Chain of UniProt Q61143 (whole entry, unmodified, looked up): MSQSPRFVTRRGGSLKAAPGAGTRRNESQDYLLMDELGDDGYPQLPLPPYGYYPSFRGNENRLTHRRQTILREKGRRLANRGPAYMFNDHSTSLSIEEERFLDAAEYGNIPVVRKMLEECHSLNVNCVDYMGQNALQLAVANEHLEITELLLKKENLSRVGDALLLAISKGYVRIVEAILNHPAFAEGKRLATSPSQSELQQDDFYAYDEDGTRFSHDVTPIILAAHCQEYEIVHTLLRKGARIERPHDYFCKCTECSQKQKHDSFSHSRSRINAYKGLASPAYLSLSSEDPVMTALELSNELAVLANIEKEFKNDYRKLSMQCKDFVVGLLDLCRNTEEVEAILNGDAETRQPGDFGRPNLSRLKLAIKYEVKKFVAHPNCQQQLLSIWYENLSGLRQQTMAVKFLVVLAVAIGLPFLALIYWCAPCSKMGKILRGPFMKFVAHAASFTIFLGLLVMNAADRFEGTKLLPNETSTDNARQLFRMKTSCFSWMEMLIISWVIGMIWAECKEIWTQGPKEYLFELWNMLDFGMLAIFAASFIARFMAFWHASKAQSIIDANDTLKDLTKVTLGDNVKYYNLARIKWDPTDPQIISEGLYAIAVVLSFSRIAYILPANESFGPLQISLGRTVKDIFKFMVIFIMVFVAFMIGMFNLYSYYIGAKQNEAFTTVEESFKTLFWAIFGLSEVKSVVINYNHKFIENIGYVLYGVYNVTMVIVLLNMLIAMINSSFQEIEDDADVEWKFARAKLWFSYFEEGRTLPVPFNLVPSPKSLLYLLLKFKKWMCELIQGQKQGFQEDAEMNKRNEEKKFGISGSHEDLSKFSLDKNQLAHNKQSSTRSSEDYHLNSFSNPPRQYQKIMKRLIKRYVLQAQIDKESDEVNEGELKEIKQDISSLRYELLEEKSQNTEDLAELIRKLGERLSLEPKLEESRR
Chain of UniProt P52732 (whole entry, looked up): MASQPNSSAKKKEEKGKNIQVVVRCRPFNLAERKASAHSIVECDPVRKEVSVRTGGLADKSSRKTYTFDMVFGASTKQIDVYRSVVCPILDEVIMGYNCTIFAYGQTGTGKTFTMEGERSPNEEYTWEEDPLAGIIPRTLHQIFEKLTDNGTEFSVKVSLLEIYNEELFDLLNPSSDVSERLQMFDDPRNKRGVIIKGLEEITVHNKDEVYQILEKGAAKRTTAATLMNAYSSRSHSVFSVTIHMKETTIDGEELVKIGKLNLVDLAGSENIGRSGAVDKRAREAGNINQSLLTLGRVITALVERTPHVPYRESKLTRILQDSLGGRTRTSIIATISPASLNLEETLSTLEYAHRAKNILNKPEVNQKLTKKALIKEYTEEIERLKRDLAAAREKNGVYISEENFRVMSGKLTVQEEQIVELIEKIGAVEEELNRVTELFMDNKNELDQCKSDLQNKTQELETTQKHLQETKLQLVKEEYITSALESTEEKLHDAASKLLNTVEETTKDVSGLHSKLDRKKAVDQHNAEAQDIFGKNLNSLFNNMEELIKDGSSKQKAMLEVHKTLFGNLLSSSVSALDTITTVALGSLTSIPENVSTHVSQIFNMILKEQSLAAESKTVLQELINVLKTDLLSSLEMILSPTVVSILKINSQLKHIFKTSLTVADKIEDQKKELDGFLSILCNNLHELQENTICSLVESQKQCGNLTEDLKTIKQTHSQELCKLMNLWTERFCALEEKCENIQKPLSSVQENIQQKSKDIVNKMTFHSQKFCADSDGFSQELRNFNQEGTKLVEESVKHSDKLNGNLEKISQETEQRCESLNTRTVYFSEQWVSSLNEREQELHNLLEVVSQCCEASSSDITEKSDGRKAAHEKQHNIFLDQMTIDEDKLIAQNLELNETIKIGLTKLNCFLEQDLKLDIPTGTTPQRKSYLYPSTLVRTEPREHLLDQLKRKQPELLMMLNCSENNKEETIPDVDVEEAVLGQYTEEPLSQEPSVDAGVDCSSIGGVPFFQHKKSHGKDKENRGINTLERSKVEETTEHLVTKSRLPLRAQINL
Chain of UniProt P08246 (whole entry, looked up): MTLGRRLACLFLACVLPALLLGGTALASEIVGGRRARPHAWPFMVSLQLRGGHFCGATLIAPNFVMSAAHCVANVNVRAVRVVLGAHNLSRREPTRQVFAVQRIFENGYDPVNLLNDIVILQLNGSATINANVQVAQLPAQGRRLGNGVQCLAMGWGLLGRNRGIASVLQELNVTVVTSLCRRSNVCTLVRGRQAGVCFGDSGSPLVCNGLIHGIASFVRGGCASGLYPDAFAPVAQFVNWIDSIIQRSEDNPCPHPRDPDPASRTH
Chain of UniProt P78352 (whole entry, looked up): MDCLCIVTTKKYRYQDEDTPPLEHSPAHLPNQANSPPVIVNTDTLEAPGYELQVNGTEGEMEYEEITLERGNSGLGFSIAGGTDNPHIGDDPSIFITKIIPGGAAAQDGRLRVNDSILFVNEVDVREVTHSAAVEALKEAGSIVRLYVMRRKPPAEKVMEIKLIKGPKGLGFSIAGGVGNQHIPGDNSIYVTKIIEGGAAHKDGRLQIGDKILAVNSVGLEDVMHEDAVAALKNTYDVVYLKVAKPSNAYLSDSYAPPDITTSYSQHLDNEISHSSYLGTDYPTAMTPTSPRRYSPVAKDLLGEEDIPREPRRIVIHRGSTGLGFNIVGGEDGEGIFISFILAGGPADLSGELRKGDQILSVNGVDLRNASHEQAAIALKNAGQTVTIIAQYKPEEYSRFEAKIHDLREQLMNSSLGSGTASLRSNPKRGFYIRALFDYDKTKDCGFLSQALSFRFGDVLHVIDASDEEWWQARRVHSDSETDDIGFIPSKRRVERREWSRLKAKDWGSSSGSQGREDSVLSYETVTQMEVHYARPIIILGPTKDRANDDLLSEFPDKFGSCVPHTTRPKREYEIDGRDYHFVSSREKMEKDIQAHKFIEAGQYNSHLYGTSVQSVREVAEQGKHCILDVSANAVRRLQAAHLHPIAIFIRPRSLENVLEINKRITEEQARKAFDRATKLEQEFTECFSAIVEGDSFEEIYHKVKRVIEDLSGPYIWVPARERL
Chain of UniProt P00519 (whole entry, looked up): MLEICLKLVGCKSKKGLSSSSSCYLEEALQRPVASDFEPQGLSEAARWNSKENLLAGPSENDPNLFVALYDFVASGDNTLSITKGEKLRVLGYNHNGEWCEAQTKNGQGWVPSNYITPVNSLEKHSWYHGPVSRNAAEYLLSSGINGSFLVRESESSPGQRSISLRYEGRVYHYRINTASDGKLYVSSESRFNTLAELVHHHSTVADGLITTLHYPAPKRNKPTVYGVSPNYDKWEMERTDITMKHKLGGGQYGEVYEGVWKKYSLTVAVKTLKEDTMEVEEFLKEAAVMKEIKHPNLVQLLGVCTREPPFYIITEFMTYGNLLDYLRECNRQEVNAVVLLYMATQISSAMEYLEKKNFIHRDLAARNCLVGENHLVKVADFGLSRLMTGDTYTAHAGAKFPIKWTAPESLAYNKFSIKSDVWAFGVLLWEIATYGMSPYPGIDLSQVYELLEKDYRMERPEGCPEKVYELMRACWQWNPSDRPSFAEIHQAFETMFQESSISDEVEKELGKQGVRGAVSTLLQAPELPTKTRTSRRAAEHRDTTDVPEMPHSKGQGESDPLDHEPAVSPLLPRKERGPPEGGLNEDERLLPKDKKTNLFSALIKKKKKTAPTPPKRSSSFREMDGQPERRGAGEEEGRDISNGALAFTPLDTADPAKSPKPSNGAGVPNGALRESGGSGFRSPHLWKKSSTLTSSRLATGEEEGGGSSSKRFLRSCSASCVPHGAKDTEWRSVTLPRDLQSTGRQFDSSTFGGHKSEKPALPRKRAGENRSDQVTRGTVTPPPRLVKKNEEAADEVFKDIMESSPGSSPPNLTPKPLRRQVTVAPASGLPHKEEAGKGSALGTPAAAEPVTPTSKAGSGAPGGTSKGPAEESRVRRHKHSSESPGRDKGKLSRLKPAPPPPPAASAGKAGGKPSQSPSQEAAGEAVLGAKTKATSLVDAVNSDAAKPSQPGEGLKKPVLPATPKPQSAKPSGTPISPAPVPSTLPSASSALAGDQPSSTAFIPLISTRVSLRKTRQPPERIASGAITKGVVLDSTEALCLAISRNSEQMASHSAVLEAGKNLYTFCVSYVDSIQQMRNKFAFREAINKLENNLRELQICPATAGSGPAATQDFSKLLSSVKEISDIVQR

SMILES	target	test	system	setting	scale	endpoint	result
COC(=O)c1cnc(-c2cnccn2)cc1C(=O)OC.COC(=O)c1cnc(-c2cnccn2)cc1C(=O)OC.O.O.O.O=S(=O)([O-])C(F)(F)F.O=S(=O)([O-])C(F)(F)F.[Cu+2]	ALB	fluorescence quenching	–	–	–	quenching rate constant	2.28e+13 M⁻¹ s⁻¹
COc1cc(C(=O)NC2CCC(N3CCN(CC4CCC5(CCCC5)C4)CC3)CC2)c(F)cc1Nc1ncc2c(n1)N(C1CCCC1(F)F)CC(F)(F)C(=O)N2C (stereo not shown)	Serine/threonine-protein kinase PLK2 (PLK2, Homo sapiens, UniProt Q9NYY3)	cell-free assay, TR-FRET	–	10 µM	–	inhibition	0.73%
O=C(Nc1ccc(C(=O)Nc2ccc(C(=O)Nc3ccc(S(=O)(=O)O)c4cc(S(=O)(=O)O)cc(S(=O)(=O)O)c34)cc2)cc1)Nc1ccc(C(=O)Nc2ccc(C(=O)Nc3ccc(S(=O)(=O)O)c4cc(S(=O)(=O)O)cc(S(=O)(=O)O)c34)cc2)cc1	Neutrophil elastase (ELANE, Homo sapiens, UniProt P08246)	substrate S-1384 hydrolysis	–	pH 7.4, 37 °C, enzyme 600 nM	–	Vmax	6.13 ± 0.3 mAU/min
N=C(N)NCCC[C@@H]1NC(=O)[C@H](Cc2c[nH]c3ccccc23)NC(=O)[C@H](CCCNC(=N)N)NC(=O)[C@H](Cc2c[nH]c3ccccc23)NC(=O)[C@H](CCCNC(=N)N)NC(=O)[C@H](Cc2c[nH]c3ccccc23)NC(=O)[C@H](CCCNC(=N)N)NC(=O)[C@H](Cc2c[nH]c3ccccc23)NC(=O)[C@H](CCCNC(=N)N)NC(=O)[C@H](Cc2c[nH]c3ccccc23)NC(=O)[C@H](CCCNC(=N)N)NC(=O)[C@H](Cc2c[nH]c3ccccc23)NC(=O)[C@H](CCCNC(=N)N)NC(=O)[C@H](Cc2c[nH]c3ccccc23)NC(=O)[C@H](CCCNC(=N)N)NC(=O)[C@H](Cc2c[nH]c3ccccc23)NC(=O)[C@H](CCCNC(=N)N)NC(=O)[C@H](Cc2c[nH]c3ccccc23)NC1=O	Tyrosine-protein kinase ABL1 (ABL1, Homo sapiens, UniProt P00519)	enzyme activity, inhibitor, radiometric	–	5 µM	–	remaining activity	7%
BP(=O)(OP(=O)([O-])OC[C@H]1O[C@@H](n2c[n+](C)c3c(=O)[nH]c(N)nc32)[C@H](O)[C@@H]1O)OP(=O)([O-])OC[C@H]1O[C@@H](n2c[n+](C)c3c(=O)[nH]c(N)nc32)[C@H](O)[C@@H]1O	m7GpppX diphosphatase (DCPS, Homo sapiens, UniProt Q96C86)	hydrolysis by DcpS, substrate, HPLC	–	15 µM, 90 min, pH 7.6, 20 °C, enzyme 200 nM	–	cleavage	3%
COc1cccc(OC)c1OCCCn1cc(CCCNc2nc3c(c(=O)[nH]2)[n+](C)cn3C2OC(COP(=O)(O)OP(=O)([O-])OP(=O)(O)OCC3OC(n4cnc5c(=O)[nH]c(N)nc54)C(O)C3O)C(O)C2O)nn1 (stereo not shown)	NUDT16 (Homo sapiens, UniProt Q96DE0)	decapping, substrate	capped RNA transcribed by SP6 polymerase	concentration not given, 30 min	–	cap hydrolysis	7.64% and 7.6%
CCCC[C@H](NC(=O)CNC(=O)[C@H](CO)NC(=O)[C@H](CCCNC(=N)N)NC(=O)[C@H](CCCNC(=N)N)NC(=O)[C@H](CC(N)=O)NC(C)=O)C(=O)N1CCC[C@H]1C(=O)N[C@@H](CCN1C(=O)c2ccc(N(C)C)cc2C1=O)C(=O)NCC(=O)N[C@@H](C)C(=O)N[C@H](C(=O)NCC(=O)N[C@H](C(=O)O)C(C)C)[C@@H](C)O	Disks large homolog 4, PDZ1-2 domains (Homo sapiens, UniProt P78352)	PDZ domain binding, fluorescence emission intensity	PSD-95 PDZ1-2 tandem construct	4-DMAP-Dab at position -5	relative to: probe without PDZ domain	relative fluorescence increase	2
O=P(O)(O)O[C@@H]1[C@@H](O)[C@@H](O[C@@H]2COC[C@@H]2OP(=O)(O)O)O[C@H](CO)[C@H]1OP(=O)(O)O	Inositol 1,4,5-trisphosphate-gated calcium channel ITPR1, N-terminal region (Itpr1, Rattus norvegicus, UniProt P29994, del318-332/R504Q)	[3H]IP3 competition binding	–	N-terminal fragment R504Q	–	Hill coefficient	1 ± 0.1
O=C(c1cc2c(s1)CCCCC2)N1CCC(n2c(=O)[nH]c3ccccc32)CC1	Short transient receptor potential channel 6 (Trpc6, Mus musculus, UniProt Q61143, E671C)	ion current, agonist, whole-cell patch clamp	–	concentration not given, E671C mutant, with: DTNB 2 mM	–	activation	inhibited
Cc1ccc2ccc3ccc(C)nc3c2n1.Cc1ccc2ccc3ccc(C)nc3c2n1.O.[Cl-].[Cl-].[Cl-].[Yb+3]	ALB	fluorescence quenching titration	–	concentration not given, 295 K	–	number of binding sites	1.13
CCC1(CC)C(=O)N(c2cccc(CN3CCN(c4cc(C)nc5ccc(Br)cc45)CC3)c2)C1=O	Prolyl endopeptidase FAP (FAP, Homo sapiens, UniProt Q12884)	probe labelling, inhibitor, competitive ABPP mass spectrometry	U-937 cell lysate	10 µM, with: FP-biotin 10 µM	relative to: DMSO over compound	SILAC ratio	> 3
CCCCc1ccc(N2C(=O)/C(=N\NC(=N)N)c3cc(C)ccc32)cc1	Penicillin-binding protein 1B (mrcB, Escherichia coli K-12, UniProt P02919)	transglycosylation activity	–	50 µM, with: dansyl-lipid II	–	remaining activity	12%
COc1ccc(C2(SCC(N)C(=O)O)c3ccccc3CCc3ccccc32)cc1 (stereo not shown)	Kinesin-like protein KIF11, motor domain (KIF11, Homo sapiens, UniProt P52732)	ITC	–	concentration not given, 25 °C	–	binding stoichiometry	0.77 ± 0.008

Some of these lines once more:
SMILES	target	test	system	setting	scale	endpoint	result
COc1cc(C(=O)NC2CCC(N3CCN(CC4CCC5(CCCC5)C4)CC3)CC2)c(F)cc1Nc1ncc2c(n1)N(C1CCCC1(F)F)CC(F)(F)C(=O)N2C (stereo not shown)	Serine/threonine-protein kinase PLK2 (PLK2, Homo sapiens, UniProt Q9NYY3)	cell-free assay, TR-FRET	–	10 µM	–	inhibition	0.73%
